# Measured values from different studies.
# Every numbered part comes from another study and shows a few of its results, in no order. Changes are numbered by the printed parent chain.

# Block 1
# Target: Interferon regulatory factor 7, full length, phosphomimetic (IRF7, Homo sapiens, UniProt Q92985, residues 1-503, S101K/S471D/S472D/S475D/S476D/S477D/S483D/S484D/S487D)
# Method: protein-binding microarray
# Form: double-stranded DNA, one strand shown
# Medium: in vitro
# Concentration: 250 nM
# Notes: 60-bp whole probe
# With: salmon DNA 0.4 mg/ml
# Baseline: random background probes
# Direction: higher = stronger binding
# All sequences stand within: GCCTAGCAC … GTCTTGATTCGCTTGACGCTGCTG
# Target sequence (chain): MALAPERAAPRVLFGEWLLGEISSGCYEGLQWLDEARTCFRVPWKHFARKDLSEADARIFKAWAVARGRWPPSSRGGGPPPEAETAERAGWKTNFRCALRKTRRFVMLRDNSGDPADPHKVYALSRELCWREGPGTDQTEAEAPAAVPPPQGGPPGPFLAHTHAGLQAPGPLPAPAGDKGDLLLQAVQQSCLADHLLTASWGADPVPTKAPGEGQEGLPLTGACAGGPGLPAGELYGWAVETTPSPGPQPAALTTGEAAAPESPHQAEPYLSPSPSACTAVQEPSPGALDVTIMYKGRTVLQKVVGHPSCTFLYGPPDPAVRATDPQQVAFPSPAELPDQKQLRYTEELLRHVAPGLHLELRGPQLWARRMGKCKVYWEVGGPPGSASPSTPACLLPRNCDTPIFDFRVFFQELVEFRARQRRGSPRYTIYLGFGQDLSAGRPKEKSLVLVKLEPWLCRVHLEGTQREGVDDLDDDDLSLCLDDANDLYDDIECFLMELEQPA
Oligonucleotide,log fluorescence [z-score]
GACGGTATCGACACCGGGGACGTGCTA,-0.25
TTAGGTCTCCTTTTCCTTCAGTGCTAG,2.14
TTACGACTGGACACTGGGTTAGTGCTA,-0.456
GCACTTTGGGAGGCCGAGGCGTGCTAG,-0.0884
GACGGTTTGGACTTTCGGGACGTGCTA,-0.0769
TTAAGTCTCGGTTTCGGTTAGTGCTAG,11.9
TGAGGTATCCTTCTCCTTTAGTGCTAG,0.139
TTAGGTAACGGTCTCGGTTAGTGCTAG,1.29
TTAGCACTGGACTATCGGTTAGTGCTA,-0.66
TTAGGTTGCGGACTGGGTTAGTGCTAG,-0.243
GACGGACTGGACTTTCGGGATGTGCTA,-0.167
TTAGGTATCCTTATCCTTGAGTGCTAG,0.358
TTAGATATCAGTTTCGATAAGTGCTAG,4.06
TTATGTCTCGGTCTCGGTTAGTGCTAG,2.02
GTCATTTTCTCTTATTCTAAGTGCTAG,1.86
GACGGTATCGGTCTCGGGACGTGCTAG,0.546
GACGGTTTCTGACTGGGGACGTGCTAG,1.03
TTAGGTTTCGGTCTCGGTCAGTGCTAG,7.6
TCTGTTTTTGCTTTCCTTTAGTGCTAG,2.37

# Block 2
# Target: Hepatocyte nuclear factor 3-alpha (Foxa1, Mus musculus, UniProt P35582, residues 1-468, full length assumed)
# Method: EMSA with sequencing
# Form: double-stranded DNA, one strand shown
# Medium: in vitro
# Concentration: 10 and 20 nM
# Notes: whole designed probe, mean of two concentrations, ends assumed
# Baseline: negative control set to 0
# Direction: higher = stronger binding
# Construct (chain): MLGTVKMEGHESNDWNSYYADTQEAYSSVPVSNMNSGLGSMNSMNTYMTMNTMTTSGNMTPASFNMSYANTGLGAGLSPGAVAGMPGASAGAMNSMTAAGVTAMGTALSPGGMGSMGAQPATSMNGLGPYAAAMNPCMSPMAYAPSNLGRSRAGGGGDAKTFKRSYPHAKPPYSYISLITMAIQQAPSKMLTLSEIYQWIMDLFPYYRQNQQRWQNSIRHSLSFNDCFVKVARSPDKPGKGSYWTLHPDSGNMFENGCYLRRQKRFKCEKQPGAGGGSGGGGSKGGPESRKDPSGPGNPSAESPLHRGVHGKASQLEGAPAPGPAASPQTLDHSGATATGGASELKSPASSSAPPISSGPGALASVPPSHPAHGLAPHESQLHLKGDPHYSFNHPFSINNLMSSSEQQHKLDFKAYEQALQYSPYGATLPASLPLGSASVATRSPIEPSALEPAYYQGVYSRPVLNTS
Oligonucleotide,normalised bound fraction [ratio]
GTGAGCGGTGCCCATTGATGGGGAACGTACAAAATTGCACTCATTGCTCTCTTGCTGTTGGCTTATTCTGGATCTCAGATAAAACTTATAAAGAAAACAAGTAGTATGGATTTATGCTTGTTTACTTAGCCAGAGAAACAAAGGCAAATGCATATTCAGAGGTATACTGATAGCGATGTTTCCATGGAAACAAGGATGCTATCATAATATTTATTTCCATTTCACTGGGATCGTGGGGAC,0.477
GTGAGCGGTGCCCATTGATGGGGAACGTCAAAAAAATATATATATGGTAAATTTGAAGAATGGTTAAAGAAGTGGGTGAACAGCCTTGGCATTTTCTCAACACTATAATTTTTTTGGTTGTTTACTTTGTTTTTTCTTGTAATTAAGTAATAATAAAAAGTTCAATAACAACAGCTCACTTTTTTGAAGAATGGTTAAAGAAGTGGGTGAGCAGCCTTGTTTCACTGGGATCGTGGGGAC,0.367
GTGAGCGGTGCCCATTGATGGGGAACCCTTATTTCTTTTTTGAAAATACAGTGACTTAGCGAGTGATACAGTATGAATGAAAGTTTTGAAGTTGGTTCATGGTGTATAAAGAGAAACAAAGTAATCTAAGCTCTTAATGGAAATACATACTTGGGACCAAACAACAGCCTATCTAAATGTTTTTTTTTGGTATTCATTTGGAAATTAATCAGATAATAATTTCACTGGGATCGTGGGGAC,0.0102
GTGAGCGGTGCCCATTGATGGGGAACATCTTCCCCCTCTTCCTTGCCCCACCAGCTCACCTTCCCGGGTTATTTGCAGATAGGAAAATAAATAAAGCCGGCATTCGTTAACCCTCTTCTGGCGCAAACTGCACATTGGTCTGGATGAATCATGGTCCTTTGGCGACGCCAGGCTCCGGGAGAGCAAAGCACCGTGTCAGGGCCATGATCCGGGGTGGCCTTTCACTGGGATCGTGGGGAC,0.326
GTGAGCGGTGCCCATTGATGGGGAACTTTTTTCTGTACAGGGAAAAATAGTGAATATTTCAAAATTGTGAAACAAAGAGTCTCTGTGGCAACTACTCATTAGACAGTTGCATAACATATGCAAACAAATGAGTGTGTCTGTGTTCCAATAAAACTGTATTTACAAAAGCAGAAGGCCACCCATGTGCCAATGTCCAAAGTTTCTCAACCAACCCCTGGTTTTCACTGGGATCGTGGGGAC,0.412

# Block 3
# Target: CCNA2, cyclin fold, Cln2 fusion (human)
# Method: yeast growth competition, sequencing
# Medium: yeast
# Notes: strong parent motif
# Baseline: not given
# Direction: higher = stronger binding
# Starting sequence: RB1 docking peptide (human); PKPLKKLRFDIEG
Variant,normalised enrichment score
P1G,0.689
P3A,3.5
L7I,0.801
L4H,1.48
E12V,1.13
R8K,0.984
D10F,2.09
I11N,1.68
K2L,1.51
G13C,3.09
R8E,1.14
P1M,0.445
F9Q,0.887
F9C,0.224
P3G,1.77
G13Y,-0.206
L4T,0.994
K6W,1.57
I11H,0.935
D10A,2.02

# Block 4
# Target: ABI1, truncated, D143A, DHFR fusion (Arabidopsis thaliana)
# Method: DHFR PCA, deep sequencing
# Medium: yeast
# Notes: methotrexate growth selection, single substitutions
# With: (+)-ABA 0 µM
# Baseline: wild-type fitted maximum
# Direction: higher = stronger binding
# Starting sequence: PYL1, truncated, DHFR fusion (Arabidopsis thaliana); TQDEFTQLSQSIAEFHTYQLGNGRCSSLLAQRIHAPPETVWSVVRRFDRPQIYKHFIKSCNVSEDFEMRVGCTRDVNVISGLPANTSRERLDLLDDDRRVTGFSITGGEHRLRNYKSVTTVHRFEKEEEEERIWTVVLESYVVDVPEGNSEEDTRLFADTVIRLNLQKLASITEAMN
Variant,relative binding score [%]
A170D,3.67
T73D,-4.73
T154I,22.8
G148M,-10.2
I52L,39.8
V100Q,-0.29
L156Q,7.11
H110C,23.4
L156R,2.56
G21M,11.2
T154W,-8.7
L82R,7.59
H16V,-1.02
V44M,3.56
N85T,59.7
S140G,5.04
F157M,7.84
S59E,21.9
E131F,11.9

# For quick reference, copied from above (block 3):
Variant,normalised enrichment score
P1M,0.445
R8E,1.14
L4T,0.994
L7I,0.801
G13C,3.09
G13Y,-0.206
D10F,2.09
